Results gathered from unrelated publications.
Each numbered part is a random draw from the data of one study; scales do not carry over between parts. Several values in a cell are separate wells, animals, samples, runs or records.
UniProt O14646, sequence (whole entry, looked up): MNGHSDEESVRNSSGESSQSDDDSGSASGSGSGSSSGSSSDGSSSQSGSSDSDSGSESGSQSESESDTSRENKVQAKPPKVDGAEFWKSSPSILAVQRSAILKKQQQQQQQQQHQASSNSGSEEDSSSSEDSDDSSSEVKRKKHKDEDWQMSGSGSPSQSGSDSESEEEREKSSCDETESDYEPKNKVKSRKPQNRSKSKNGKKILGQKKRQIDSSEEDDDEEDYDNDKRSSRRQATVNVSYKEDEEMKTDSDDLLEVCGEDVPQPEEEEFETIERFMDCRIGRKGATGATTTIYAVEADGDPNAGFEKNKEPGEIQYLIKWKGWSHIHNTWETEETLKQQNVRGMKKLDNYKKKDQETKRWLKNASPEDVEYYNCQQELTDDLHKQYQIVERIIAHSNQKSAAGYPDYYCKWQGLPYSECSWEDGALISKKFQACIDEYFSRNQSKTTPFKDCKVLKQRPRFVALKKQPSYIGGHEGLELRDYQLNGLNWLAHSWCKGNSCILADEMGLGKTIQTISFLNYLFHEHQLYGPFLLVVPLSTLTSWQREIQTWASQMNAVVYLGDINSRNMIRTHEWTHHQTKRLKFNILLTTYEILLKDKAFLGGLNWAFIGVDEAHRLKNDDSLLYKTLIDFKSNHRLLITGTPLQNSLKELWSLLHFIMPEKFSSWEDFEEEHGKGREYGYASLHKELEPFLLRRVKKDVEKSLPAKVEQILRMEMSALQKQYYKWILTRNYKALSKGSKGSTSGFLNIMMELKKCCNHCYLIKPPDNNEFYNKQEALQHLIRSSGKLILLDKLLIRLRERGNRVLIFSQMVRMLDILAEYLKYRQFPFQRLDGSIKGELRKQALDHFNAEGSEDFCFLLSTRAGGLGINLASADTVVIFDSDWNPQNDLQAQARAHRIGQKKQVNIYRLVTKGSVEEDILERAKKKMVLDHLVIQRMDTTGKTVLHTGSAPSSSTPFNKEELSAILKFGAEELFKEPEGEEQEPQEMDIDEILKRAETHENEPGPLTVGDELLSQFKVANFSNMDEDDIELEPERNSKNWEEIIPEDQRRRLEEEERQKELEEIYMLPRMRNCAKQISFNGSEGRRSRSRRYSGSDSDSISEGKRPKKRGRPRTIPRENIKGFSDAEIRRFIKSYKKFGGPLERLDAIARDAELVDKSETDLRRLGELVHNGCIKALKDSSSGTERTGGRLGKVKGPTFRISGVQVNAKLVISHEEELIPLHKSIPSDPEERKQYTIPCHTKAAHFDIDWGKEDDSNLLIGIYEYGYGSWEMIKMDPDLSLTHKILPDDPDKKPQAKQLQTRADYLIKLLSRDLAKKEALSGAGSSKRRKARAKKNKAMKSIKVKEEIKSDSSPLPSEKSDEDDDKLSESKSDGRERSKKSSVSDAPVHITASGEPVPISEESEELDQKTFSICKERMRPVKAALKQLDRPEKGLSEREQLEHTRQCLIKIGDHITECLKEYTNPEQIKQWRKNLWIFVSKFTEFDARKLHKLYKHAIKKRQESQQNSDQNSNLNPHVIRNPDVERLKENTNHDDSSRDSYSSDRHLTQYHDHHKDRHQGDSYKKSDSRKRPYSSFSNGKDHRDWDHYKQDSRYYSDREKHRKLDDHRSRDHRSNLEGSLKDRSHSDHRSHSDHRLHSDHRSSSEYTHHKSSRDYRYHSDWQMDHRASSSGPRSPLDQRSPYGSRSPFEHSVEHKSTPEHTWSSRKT
UniProt Q76MJ5, sequence (whole entry, looked up): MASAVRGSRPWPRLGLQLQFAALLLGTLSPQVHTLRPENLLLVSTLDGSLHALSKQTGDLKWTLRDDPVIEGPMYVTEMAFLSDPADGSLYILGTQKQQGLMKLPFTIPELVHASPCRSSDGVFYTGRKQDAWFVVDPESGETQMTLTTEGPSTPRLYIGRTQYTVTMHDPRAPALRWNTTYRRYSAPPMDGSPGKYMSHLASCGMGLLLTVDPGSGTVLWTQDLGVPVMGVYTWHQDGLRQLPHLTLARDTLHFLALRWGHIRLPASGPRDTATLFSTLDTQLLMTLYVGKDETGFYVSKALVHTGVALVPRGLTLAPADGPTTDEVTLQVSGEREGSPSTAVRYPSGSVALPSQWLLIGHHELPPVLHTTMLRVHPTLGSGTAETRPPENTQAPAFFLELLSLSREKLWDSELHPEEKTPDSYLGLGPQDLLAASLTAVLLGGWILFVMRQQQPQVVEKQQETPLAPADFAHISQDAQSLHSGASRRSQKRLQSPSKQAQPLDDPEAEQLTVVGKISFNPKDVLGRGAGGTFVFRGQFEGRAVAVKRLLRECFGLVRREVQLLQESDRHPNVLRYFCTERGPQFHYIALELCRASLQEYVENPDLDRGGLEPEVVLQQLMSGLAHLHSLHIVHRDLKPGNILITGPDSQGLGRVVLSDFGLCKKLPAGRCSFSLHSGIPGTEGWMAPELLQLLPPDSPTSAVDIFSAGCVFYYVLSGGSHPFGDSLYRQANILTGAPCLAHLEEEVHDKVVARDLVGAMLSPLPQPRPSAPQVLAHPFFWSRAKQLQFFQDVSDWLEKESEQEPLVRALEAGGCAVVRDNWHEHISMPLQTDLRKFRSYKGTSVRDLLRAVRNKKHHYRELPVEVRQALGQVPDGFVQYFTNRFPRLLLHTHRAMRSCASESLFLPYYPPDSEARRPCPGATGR
UniProt Q15139, sequence (whole entry, looked up): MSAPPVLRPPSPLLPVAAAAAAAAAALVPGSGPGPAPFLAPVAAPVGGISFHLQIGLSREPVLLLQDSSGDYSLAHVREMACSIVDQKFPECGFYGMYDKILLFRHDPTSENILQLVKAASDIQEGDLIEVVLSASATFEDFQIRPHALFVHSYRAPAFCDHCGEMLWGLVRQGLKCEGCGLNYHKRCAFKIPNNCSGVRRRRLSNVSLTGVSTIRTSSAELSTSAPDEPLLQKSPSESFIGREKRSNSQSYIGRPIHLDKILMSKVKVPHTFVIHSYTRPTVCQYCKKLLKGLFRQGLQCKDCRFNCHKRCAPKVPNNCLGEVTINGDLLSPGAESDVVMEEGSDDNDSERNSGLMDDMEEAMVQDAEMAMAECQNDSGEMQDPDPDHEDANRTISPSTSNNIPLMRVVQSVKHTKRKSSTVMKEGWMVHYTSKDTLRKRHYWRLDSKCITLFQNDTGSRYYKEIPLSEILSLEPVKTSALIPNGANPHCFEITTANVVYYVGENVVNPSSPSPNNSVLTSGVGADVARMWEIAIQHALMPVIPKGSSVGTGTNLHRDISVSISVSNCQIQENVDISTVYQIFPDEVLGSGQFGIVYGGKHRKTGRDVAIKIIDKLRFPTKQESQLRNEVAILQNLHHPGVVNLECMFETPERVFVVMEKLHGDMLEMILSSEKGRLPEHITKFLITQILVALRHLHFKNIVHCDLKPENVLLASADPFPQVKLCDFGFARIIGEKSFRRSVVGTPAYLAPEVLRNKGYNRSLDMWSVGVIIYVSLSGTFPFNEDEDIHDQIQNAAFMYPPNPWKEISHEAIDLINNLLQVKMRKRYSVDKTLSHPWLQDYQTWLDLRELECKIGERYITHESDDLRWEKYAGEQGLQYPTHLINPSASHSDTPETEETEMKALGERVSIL
UniProt Q96RR4, sequence (whole entry, looked up): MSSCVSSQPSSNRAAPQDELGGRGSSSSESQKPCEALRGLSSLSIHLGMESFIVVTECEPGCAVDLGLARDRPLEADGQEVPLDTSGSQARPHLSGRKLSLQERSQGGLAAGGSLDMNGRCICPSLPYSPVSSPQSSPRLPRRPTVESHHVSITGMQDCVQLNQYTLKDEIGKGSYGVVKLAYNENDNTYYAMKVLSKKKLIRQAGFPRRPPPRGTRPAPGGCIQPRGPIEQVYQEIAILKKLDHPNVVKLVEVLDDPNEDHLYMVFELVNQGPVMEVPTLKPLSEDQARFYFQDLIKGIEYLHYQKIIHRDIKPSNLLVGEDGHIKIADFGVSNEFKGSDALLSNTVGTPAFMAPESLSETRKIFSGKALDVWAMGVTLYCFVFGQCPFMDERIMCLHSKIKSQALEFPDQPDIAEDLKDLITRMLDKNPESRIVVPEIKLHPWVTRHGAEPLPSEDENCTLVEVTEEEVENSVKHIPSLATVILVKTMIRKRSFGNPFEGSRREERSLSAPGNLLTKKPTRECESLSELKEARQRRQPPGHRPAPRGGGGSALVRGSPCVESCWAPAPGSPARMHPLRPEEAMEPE

Sample 1
Target: Ephrin type-A receptor 4 (EPHA4, Homo sapiens, UniProt P54764)
UniProt P54764, sequence (whole entry, looked up): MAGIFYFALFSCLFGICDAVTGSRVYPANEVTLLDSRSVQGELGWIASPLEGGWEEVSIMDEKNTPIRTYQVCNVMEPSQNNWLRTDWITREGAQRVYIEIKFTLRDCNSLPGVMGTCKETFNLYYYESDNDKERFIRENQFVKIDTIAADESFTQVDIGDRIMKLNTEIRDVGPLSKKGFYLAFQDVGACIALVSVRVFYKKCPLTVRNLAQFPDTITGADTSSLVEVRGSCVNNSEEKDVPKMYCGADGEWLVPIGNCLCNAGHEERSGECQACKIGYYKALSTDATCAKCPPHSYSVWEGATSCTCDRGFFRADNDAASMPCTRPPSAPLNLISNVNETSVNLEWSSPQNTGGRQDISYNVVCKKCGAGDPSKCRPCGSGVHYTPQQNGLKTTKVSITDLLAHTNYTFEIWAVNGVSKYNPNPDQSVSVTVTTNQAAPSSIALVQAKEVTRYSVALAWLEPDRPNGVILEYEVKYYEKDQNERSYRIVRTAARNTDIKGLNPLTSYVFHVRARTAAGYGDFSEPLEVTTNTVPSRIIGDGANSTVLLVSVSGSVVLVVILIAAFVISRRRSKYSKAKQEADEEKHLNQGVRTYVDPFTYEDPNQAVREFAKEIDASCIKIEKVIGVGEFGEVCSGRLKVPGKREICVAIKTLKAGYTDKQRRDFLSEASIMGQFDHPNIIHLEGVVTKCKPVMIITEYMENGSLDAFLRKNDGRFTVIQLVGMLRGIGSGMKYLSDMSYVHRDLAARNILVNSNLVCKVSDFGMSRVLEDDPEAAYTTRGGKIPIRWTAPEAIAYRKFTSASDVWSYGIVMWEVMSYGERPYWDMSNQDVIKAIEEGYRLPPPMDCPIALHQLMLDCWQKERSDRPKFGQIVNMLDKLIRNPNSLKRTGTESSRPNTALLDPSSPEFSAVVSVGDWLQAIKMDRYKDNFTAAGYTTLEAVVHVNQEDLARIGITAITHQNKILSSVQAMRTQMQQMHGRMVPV
Observed: enzyme activity
Mode: inhibitor
Tested at: 0.5 µM
Relative to: control
Measurement: remaining activity
Nc1ccc2ncnc(NCCc3ccc(Oc4ccccc4)cc3)c2c1: 98.5%
Cn1c2ccccc2c2c3c(c4c5ccccc5n(CCC#N)c4c21)CNC3=O: 90.4%
O=C(CCCc1ccc(-c2ccccc2F)cc1)Nc1ccc(O)cc1: 99.2%
COc1ccc(C(=O)Nc2sc3c(c2C(N)=O)CCCC3)cc1OC: 104%
OCC(O)CCON=C1C(c2c(O)[nH]c3ccccc23)=Nc2ccccc21 (stereo not shown): 77.9%
Cc1nc(-c2ccccc2)c(-c2ccncc2)o1: 112%
CN(C)c1ccc(C=C2C(=O)Nc3ccccc32)cc1: 95.2%
O=C1NC(=O)C(c2cn(CCCO)c3ncccc23)=C1c1cnccn1: 99.5%
COc1cc2nccc(Oc3ccc(NC(=S)NC(=O)c4ccccc4C)cc3)c2cc1OC: 81.4%
CNC(=O)c1cc(Oc2ccc(NC(=O)Nc3ccc(Cl)c(C(F)(F)F)c3)cc2)ccn1: 92.5%
O=c1c2ccccc2[nH]c(=S)n1CCN1CCC(=C(c2ccc(F)cc2)c2ccc(F)cc2)CC1: 99.4%
NCCNc1ncc(C(N)=O)c(Nc2cccc(C(F)(F)F)c2)n1: 101%
CCOC(=O)c1c(C)[nH]c(/C=C2\C(=O)Nc3ccccc32)c1C: 80.3%
N#CC(C#N)=C(N)/C(C#N)=C/c1ccc(O)cc1: 96%
O=C(Nc1cccc(Nc2cc(Nc3cccc(C(F)(F)F)c3)ncn2)c1)C1CC1: 96.5%
O=C(O)c1ccc2c3c1cccc3c(=O)n1c3ccccc3nc21: 103%

Sample 2
SMILES: O=C(Nc1cnn(-c2csc(C(=O)NC3COC3)c2)c1)Nc1ccccc1Cl
Observed: enzyme activity
Tested at: 5 µM
Measurement: remaining activity
Protein kinase C delta type (PRKCD, Homo sapiens, UniProt Q05655); relative to: untreated control: 107%
Serine/threonine-protein kinase D1 (PRKD1, Homo sapiens, UniProt Q15139); relative to: untreated control: 106%
cAMP-dependent protein kinase catalytic subunit PRKX (PRKX, Homo sapiens, UniProt P51817); relative to: untreated control: 102%
Kinase suppressor of Ras 2 (KSR2, Homo sapiens, UniProt Q6VAB6); inhibitor: 107%
Serine/threonine-protein kinase/endoribonuclease IRE2 (ERN2, Homo sapiens, UniProt Q76MJ5); inhibitor: 100%
Serine/threonine-protein kinase greatwall (MASTL, Homo sapiens, UniProt Q96GX5); relative to: untreated control: 96.6%
Mitogen-activated protein kinase kinase kinase kinase 5 (MAP4K5, Homo sapiens, UniProt Q9Y4K4); relative to: untreated control: 94.6%

Sample 3
SMILES: Cc1c(NC(=O)c2cc(C(N)=O)nc3cc(F)ccc23)c(C(F)(F)F)nn1Cc1ccc(C#N)cc1
Method: competition with immobilised ligand
Tested at: 1 µM
Measurement: remaining binding
Dual specificity mitogen-activated protein kinase kinase 6 (MAP2K6, Homo sapiens, UniProt P52564); cell-free assay: 100%
Epidermal growth factor receptor (EGFR, Homo sapiens, UniProt P00533, A750P/del747-749); cell-free assay: 91%
Calcium/calmodulin-dependent protein kinase kinase 2 (CAMKK2, Homo sapiens, UniProt Q96RR4); cell-free assay: 92%
Epidermal growth factor receptor (EGFR, Homo sapiens, UniProt P00533, L858R/T790M); cell-free assay: 93%
Serine/threonine-protein kinase RIO3 (RIOK3, Homo sapiens, UniProt O14730); cell-free assay: 75%
Myosin-IIIb (MYO3B, Homo sapiens, UniProt Q8WXR4); binding: 100%
Activin receptor type-2B (ACVR2B, Homo sapiens, UniProt Q13705); binding: 93%
Vascular endothelial growth factor receptor 2 (KDR, Homo sapiens, UniProt P35968); cell-free assay: 80%
Discoidin domain-containing receptor 2 (DDR2, Homo sapiens, UniProt Q16832); cell-free assay: 66%
Serine/threonine-protein kinase Sgk2 (SGK2, Homo sapiens, UniProt Q9HBY8); cell-free assay: 80%

Single results of other studies
CO[C@@H]1[C@@H](OC(N)=O)[C@@H](O)[C@H](Oc2ccc3c(O)c(NC(=O)c4ccc(O)c(CC=C(C)C)c4)c(=O)oc3c2C)OC1(C)C  remaining activity (CHD1 (Homo sapiens, UniProt O14646); ATPase activity, ADP-Glo; 100 µM; relative to: DMSO): 67% and 68.6% and 70.3% and 87% and 80.5% and 88.7%

Repeated from above (sample 1):
Cn1c2ccccc2c2c3c(c4c5ccccc5n(CCC#N)c4c21)CNC3=O: 90.4%
O=C(CCCc1ccc(-c2ccccc2F)cc1)Nc1ccc(O)cc1: 99.2%
COc1ccc(C(=O)Nc2sc3c(c2C(N)=O)CCCC3)cc1OC: 104%
OCC(O)CCON=C1C(c2c(O)[nH]c3ccccc23)=Nc2ccccc21 (stereo not shown): 77.9%
Cc1nc(-c2ccccc2)c(-c2ccncc2)o1: 112%
